Measurements collected from several papers.
Parts stem from different laboratories: compare values within a part only. Several values in a cell are separate wells, animals, samples, runs or records.
Chain of UniProt Q9H0K1 (whole entry, looked up): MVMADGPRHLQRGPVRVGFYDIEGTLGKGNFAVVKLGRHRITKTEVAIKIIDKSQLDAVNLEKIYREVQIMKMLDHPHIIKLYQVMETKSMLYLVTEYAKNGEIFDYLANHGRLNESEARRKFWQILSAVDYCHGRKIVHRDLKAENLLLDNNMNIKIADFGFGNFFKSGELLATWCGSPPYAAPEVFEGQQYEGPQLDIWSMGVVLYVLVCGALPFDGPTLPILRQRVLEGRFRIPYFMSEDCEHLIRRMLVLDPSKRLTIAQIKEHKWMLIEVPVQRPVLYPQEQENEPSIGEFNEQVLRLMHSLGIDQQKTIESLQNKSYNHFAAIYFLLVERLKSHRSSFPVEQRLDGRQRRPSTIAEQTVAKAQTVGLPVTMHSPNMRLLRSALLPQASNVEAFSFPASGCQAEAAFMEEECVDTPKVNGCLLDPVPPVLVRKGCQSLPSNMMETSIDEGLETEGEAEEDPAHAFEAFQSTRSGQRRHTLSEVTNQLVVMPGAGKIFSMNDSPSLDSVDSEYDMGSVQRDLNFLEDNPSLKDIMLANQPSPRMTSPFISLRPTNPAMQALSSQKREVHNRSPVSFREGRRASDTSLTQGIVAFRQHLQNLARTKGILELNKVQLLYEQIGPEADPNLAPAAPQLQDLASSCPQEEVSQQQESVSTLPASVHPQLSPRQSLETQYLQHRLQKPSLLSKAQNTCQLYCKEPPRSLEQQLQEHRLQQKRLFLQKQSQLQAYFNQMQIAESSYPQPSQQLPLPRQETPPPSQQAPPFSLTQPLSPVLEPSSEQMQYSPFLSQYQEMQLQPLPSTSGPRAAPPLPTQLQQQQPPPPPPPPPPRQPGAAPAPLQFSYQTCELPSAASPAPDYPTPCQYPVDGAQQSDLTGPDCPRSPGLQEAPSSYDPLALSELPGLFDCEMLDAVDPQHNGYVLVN
Chain of UniProt O75676 (whole entry, looked up): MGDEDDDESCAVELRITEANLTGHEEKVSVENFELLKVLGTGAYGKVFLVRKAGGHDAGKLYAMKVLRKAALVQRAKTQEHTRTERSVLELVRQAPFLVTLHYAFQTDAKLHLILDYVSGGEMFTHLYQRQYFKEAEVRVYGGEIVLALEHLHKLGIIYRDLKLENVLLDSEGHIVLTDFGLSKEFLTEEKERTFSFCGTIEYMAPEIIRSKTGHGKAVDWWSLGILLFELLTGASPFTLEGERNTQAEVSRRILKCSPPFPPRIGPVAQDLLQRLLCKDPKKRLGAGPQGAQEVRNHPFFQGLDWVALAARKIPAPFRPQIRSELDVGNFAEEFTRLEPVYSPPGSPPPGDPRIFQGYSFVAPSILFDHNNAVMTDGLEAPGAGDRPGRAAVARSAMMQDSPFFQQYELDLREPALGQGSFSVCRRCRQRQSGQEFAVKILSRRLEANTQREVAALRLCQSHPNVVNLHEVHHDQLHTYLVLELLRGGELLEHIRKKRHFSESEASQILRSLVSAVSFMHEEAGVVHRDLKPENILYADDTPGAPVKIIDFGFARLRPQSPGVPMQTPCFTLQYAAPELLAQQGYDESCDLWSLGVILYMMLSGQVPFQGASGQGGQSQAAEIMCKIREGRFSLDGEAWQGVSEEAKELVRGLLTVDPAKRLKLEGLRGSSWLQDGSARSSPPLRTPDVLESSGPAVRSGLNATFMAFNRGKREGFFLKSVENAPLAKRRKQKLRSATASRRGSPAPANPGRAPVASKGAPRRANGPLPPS
Chain of UniProt P23458 (whole entry, looked up): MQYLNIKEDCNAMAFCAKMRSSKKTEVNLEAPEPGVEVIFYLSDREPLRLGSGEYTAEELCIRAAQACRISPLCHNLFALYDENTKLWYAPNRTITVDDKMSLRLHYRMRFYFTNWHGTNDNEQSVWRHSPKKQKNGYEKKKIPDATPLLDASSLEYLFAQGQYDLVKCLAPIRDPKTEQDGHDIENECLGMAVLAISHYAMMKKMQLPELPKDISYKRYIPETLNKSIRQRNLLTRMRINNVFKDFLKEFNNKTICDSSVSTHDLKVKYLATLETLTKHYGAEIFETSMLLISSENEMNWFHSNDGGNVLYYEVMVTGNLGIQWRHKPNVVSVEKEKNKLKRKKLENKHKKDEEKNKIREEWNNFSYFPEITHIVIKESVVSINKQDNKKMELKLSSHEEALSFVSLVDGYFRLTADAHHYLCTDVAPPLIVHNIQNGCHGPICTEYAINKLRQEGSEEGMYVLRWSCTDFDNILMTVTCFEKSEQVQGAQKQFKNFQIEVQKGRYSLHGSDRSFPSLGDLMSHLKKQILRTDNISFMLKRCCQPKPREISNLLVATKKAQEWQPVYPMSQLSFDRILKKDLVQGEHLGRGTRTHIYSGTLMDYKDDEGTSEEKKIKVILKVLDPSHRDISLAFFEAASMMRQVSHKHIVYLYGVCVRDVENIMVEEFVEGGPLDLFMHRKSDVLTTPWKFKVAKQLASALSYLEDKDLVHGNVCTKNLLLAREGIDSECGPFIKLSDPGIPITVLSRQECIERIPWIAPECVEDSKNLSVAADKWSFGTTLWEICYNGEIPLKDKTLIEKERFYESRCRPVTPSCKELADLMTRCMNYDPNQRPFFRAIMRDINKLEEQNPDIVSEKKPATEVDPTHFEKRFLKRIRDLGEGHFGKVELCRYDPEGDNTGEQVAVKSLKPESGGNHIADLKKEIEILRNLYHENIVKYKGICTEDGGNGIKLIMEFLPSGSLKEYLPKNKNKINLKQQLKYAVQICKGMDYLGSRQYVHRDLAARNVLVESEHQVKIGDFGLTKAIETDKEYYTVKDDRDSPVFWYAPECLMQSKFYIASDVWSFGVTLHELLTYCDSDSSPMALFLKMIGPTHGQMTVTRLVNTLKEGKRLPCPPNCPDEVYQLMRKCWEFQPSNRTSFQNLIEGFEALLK
Chain of UniProt P29317 (whole entry, looked up): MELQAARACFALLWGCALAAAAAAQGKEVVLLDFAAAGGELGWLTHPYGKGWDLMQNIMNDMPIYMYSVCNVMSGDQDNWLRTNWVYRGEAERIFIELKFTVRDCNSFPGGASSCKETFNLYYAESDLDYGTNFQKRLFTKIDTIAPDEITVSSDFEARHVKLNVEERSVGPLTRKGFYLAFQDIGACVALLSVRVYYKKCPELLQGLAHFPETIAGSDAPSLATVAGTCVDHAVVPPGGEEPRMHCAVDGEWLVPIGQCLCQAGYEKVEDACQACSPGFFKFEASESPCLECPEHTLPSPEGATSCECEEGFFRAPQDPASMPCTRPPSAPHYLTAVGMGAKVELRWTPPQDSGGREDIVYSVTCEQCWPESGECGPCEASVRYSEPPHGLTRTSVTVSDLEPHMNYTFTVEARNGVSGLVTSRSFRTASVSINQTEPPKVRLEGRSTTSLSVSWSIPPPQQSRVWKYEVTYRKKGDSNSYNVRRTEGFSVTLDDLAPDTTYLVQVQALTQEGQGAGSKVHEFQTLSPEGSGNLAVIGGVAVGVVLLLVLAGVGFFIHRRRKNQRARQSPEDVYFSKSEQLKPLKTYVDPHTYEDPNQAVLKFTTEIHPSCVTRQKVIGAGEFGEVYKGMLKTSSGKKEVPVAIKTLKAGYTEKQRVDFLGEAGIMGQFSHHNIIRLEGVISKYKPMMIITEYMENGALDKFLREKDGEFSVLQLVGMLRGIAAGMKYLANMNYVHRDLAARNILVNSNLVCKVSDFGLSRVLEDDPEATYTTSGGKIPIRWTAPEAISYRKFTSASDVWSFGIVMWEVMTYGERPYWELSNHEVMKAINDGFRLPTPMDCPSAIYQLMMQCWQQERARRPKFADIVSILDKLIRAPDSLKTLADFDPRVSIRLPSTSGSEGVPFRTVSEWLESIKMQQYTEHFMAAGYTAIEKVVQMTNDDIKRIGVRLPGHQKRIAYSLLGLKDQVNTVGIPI
Chain of UniProt Q9HBY8 (whole entry, looked up): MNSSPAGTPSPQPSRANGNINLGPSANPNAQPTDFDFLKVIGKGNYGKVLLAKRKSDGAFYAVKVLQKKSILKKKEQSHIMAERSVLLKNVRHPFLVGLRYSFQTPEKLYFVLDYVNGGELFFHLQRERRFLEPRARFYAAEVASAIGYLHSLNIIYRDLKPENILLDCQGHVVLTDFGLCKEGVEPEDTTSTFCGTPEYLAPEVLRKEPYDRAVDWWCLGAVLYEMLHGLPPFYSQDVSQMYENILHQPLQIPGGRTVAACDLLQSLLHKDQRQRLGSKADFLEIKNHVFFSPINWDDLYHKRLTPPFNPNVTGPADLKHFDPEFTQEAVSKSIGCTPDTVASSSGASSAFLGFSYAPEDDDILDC
Chain of UniProt P49674 (whole entry, looked up): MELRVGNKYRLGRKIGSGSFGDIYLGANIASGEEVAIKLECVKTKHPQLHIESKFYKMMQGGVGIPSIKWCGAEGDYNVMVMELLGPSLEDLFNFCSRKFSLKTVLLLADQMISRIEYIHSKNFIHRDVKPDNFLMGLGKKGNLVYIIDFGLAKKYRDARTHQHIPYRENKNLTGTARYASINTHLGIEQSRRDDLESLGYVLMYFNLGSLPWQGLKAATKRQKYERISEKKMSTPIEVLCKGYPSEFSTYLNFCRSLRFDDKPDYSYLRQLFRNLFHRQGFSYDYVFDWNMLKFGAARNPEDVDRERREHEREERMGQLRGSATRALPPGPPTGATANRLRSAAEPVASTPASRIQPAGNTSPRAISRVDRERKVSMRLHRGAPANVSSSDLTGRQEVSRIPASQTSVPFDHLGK
Chain of UniProt P48730 (whole entry, looked up): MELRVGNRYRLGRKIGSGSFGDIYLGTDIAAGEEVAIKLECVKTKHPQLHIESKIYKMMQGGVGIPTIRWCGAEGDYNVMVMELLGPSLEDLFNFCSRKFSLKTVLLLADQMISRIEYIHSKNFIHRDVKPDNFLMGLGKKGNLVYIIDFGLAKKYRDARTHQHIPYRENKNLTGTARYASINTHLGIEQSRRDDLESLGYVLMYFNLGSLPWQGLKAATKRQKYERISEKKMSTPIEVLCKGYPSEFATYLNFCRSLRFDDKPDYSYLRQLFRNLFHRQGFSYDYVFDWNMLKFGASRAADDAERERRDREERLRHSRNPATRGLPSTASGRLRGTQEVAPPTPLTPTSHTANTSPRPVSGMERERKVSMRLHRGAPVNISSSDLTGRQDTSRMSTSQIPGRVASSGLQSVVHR

Series 1
Structure (SMILES): CN(c1ccnc(CNc2nc(Nc3ccc4c(c3)CC(=O)N4)ncc2C(F)(F)F)n1)S(C)(=O)=O
Concentration: 1 µM
target | effect on | method | remaining binding [%]
Dual specificity mitogen-activated protein kinase kinase 4 (MAP2K4, Homo sapiens, UniProt P45985) | cell-free assay | competition with immobilised ligand | 23
Myosin light chain kinase 2, skeletal/cardiac muscle (MYLK2, Homo sapiens, UniProt Q9H1R3) | cell-free assay | competition with immobilised ligand | 53
Receptor-type tyrosine-protein kinase FLT3 (FLT3, Homo sapiens, UniProt P36888, D835V/ITD) | cell-free assay | competition with immobilised ligand | 0.7
Serine/threonine-protein kinase SIK2 (SIK2, Homo sapiens, UniProt Q9H0K1) | cell-free assay | competition with immobilised ligand | 41
Ribosomal protein S6 kinase alpha-4, N-terminal kinase domain (RPS6KA4, Homo sapiens, UniProt O75676) | cell-free assay | competition with immobilised ligand | 81
Tyrosine-protein kinase TXK (TXK, Homo sapiens, UniProt P42681) | binding | competition with immobilised ligand | 91
Cyclin-dependent kinase 19 (CDK19, Homo sapiens, UniProt Q9BWU1) | – | competition binding | 84
Serine/threonine-protein kinase Chk2 (CHEK2, Homo sapiens, UniProt O96017) | binding | competition with immobilised ligand | 0
Casein kinase I isoform alpha-like (CSNK1A1L, Homo sapiens, UniProt Q8N752) | cell-free assay | competition with immobilised ligand | 81

Series 2
Cell line: HaCaT
Concentration: 100 µM
Time: 18 h
SMILES | viability
COC(c1ccccc1)(c1ccccc1)[C@H](Oc1nc(C)cc(C)n1)C(=O)O | 114%
O=c1cc[nH]c(=O)[nH]1 | 107%
Cc1cc(=O)[nH]c(=S)[nH]1 | 110%
O=[N+]([O-])c1ccc(O)c2ncccc12 | 40.5%
COC(=O)C1=C(C)NC(C)=C(C(=O)O[C@@H]2CCCN(Cc3ccccc3)C2)[C@@H]1c1cccc([N+](=O)[O-])c1 (racemic) | 48%
CCN(CC)Cc1cc(Nc2ccnc3cc(Cl)ccc23)ccc1O | 82.7%
OC[C@@H](O)[C@@H](O)[C@H](O)[C@H](O)CO | 110%
C=C1CC[C@H](O)C/C1=C/C=C1\CCC[C@]2(C)[C@@H]([C@H](C)/C=C/[C@H](C)C(C)C)CC[C@@H]12 | 47.5%

Series 3
SMILES: CC(C)(C)n1nc(Cc2cccc3ccccc23)c2c(N)ncnc21
Effect on: enzyme activity
Action: inhibitor
Concentration: 0.5 µM
Baseline: control
target | remaining activity
Muscle, skeletal receptor tyrosine-protein kinase (MUSK, Homo sapiens, UniProt O15146) | 87.6%
Serine/threonine-protein kinase Sgk2 (SGK2, Homo sapiens, UniProt Q9HBY8) | 98.7%
Protein kinase C zeta type (PRKCZ, Homo sapiens, UniProt Q05513) | 90.3%
Cyclin-dependent kinase 2, with cyclin E (CDK2, Homo sapiens, UniProt P24941) | 89.6%
Insulin-like growth factor 1 receptor (IGF1R, Homo sapiens, UniProt P08069) | 98.5%
Vascular endothelial growth factor receptor 1 (FLT1, Homo sapiens, UniProt P17948) | 85.3%
SRSF protein kinase 1 (SRPK1, Homo sapiens, UniProt Q96SB4) | 104%
Serine/threonine-protein kinase PAK 1 (PAK1, Homo sapiens, UniProt Q13153) | 86%
Dual specificity protein kinase CLK1 (CLK1, Homo sapiens, UniProt P49759) | 97.7%
Serine/threonine-protein kinase SIK2 (SIK2, Homo sapiens, UniProt Q9H0K1) | 93%
Mitogen-activated protein kinase kinase kinase 20 (MAP3K20, Homo sapiens, UniProt Q9NYL2) | 90.9%
Tyrosine-protein kinase receptor TYRO3 (TYRO3, Homo sapiens, UniProt Q06418) | 97.7%
Calcium/calmodulin-dependent protein kinase type 1 (CAMK1, Homo sapiens, UniProt Q14012) | 92.6%
Ephrin type-A receptor 2 (EPHA2, Homo sapiens, UniProt P29317) | 42%
Ephrin type-A receptor 6 (EPHA6, Homo sapiens, UniProt Q9UF33) | 9.38%
Ribosomal protein S6 kinase alpha-3 (RPS6KA3, Homo sapiens, UniProt P51812) | 95.3%
Casein kinase I isoform delta (CSNK1D, Homo sapiens, UniProt P48730) | 53.7%
Tyrosine-protein kinase JAK1 (JAK1, Homo sapiens, UniProt P23458) | 90.4%
Calcium/calmodulin-dependent protein kinase kinase 1 (CAMKK1, Homo sapiens, UniProt Q8N5S9) | 84.6%
Serine/threonine-protein kinase PAK 6 (PAK6, Homo sapiens, UniProt Q9NQU5) | 100%
Casein kinase I isoform epsilon (CSNK1E, Homo sapiens, UniProt P49674) | 1.53%
Dual specificity protein kinase CLK2 (CLK2, Homo sapiens, UniProt P49760) | 90.2%
Protein kinase C theta type (PRKCQ, Homo sapiens, UniProt Q04759) | 103%
Tyrosine-protein kinase Tec (TEC, Homo sapiens, UniProt P42680) | 111%

Series 4
Cell line: mouse MPNST tumor cells
Method: high-content nuclear imaging
Item: cell number
Concentration: 10 µM
Time: 12 h
Setting: mean of 2 replicates
Baseline: plate mean
Reading: higher = more cells
Compound | nuclei count
N=C(N)NC(=N)NCCc1ccccc1 | 0.0795 z-score
CSc1nc2cc(Cl)c(Oc3cccc(Cl)c3Cl)cc2[nH]1 | -0.452 z-score
CC1CCc2cc(F)cc3c(=O)c(C(=O)O)cn1c23 (stereo not drawn) | 1.64 z-score
COc1ccc(-c2ccc(OCc3cc(C(=O)NS(=O)(=O)c4ccccc4C)oc3C)cc2)nc1 | 0.192 z-score
CC(=O)[C@@]12O[C@](C)(c3ccccc3)O[C@@H]1C[C@H]1[C@@H]3CCC4=CC(=O)CC[C@]4(C)[C@H]3CC[C@@]12C | 2.29 z-score
O=C(N[C@H](CO)[C@H](O)c1ccc([N+](=O)[O-])cc1)C(Cl)Cl | 2.58 z-score
CCC(=O)N1CCOc2c(cc(-c3ccc(OC)c(OC)c3)cc2OC[C@H]2CCCN(C)C2)C1 | 3.34 z-score and 4.71 z-score
CC[C@H]1OC(=O)[C@H](C)[C@@H](O[C@H]2C[C@@](C)(OC)[C@@H](O)[C@H](C)O2)[C@H](C)[C@@H](O[C@@H]2O[C@H](C)C[C@H](N(C)C)[C@H]2O)[C@](C)(O)C[C@@H](C)/C(=N\OCOCCOC)[C@H](C)[C@@H](O)[C@]1(C)O | 0.926 z-score
COC(=O)[C@H](Cc1ccc([N+](=O)[O-])cc1)NC(=O)c1cccc2ccccc12 | 0.322 z-score
CCCCC(C)(O)C/C=C/[C@H]1[C@H](O)CC(=O)[C@@H]1CCCCCCC(=O)OC (mixture of isomers) | 0.396 z-score
Cc1cc(-n2c(=O)[nH]c(=O)n(C)c2=O)ccc1Oc1ccc(SC(F)(F)F)cc1 | 0.567 z-score
CCN(CC)CCc1nc(-c2ccccc2)no1 | -0.0583 z-score
CCOc1ccc(NC(=O)CC(C)O)cc1 (stereo not drawn) | -0.0834 z-score
